Results of several laboratories.
Lines come from different studies, so protocols differ. “And” joins repeats or separate records; there may be more than shown. ± marks the error that the study gave.
Chain of UniProt Q9Y243 (whole entry, looked up): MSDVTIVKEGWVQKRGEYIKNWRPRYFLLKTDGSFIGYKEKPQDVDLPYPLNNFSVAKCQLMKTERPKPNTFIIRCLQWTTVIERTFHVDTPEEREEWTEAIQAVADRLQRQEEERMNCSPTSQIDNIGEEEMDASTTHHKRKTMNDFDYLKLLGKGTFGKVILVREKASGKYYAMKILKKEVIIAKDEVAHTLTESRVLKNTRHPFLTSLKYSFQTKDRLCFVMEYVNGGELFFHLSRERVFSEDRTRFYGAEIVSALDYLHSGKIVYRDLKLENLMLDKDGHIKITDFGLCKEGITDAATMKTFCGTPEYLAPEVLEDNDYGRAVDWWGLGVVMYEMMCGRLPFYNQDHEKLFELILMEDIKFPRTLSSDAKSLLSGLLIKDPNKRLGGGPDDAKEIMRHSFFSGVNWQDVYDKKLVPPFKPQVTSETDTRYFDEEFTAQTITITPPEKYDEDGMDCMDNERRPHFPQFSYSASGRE
Chain of UniProt Q96SB4 (whole entry, looked up): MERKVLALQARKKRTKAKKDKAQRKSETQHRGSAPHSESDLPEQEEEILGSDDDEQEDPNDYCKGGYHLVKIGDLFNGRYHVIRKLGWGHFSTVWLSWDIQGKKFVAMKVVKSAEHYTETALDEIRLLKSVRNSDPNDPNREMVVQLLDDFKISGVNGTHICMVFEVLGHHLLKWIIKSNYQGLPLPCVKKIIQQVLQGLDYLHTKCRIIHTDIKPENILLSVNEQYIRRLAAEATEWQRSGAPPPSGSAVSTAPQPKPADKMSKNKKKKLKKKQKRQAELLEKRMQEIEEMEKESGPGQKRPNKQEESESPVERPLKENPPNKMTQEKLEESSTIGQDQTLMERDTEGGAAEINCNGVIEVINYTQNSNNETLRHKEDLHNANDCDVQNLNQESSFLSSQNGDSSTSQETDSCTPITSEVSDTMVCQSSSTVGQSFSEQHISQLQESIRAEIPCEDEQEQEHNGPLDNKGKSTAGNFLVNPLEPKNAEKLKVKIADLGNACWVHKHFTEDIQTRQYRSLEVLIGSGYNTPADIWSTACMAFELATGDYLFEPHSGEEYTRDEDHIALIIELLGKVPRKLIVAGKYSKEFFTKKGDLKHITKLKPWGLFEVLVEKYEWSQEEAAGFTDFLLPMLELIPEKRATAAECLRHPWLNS

`CC(=O)N[C@@H](CC(C)C)C(=O)N[C@H]1CSSC[C@@H](C(=O)N2CCC[C@H]2C(N)=O)NC(=O)[C@H]([C@@H](C)O)NC(=O)[C@H](C(C)C)NC(=O)[C@H]([C@@H](C)O)NC(=O)[C@H](CCCCN)NC(=O)[C@H](CC(C)C)NC(=O)[C@H](Cc2ccccc2)NC(=O)[C@H](Cc2ccc(O)cc2)NC(=O)[C@H](CC(C)C)NC(=O)[C@H](CCCCN)NC(=O)[C@H](Cc2ccccc2)NC(=O)[C@H](CCCNC(=N)N)NC(=O)[C@H](CCC(N)=O)NC(=O)[C@H](CC(C)C)NC(=O)[C@H](CCCCN)NC(=O)[C@@H]2CCCN2C(=O)[C@H](CCCCN)NC(=O)[C@H](C(C)C)NC(=O)[C@H](CC(N)=O)NC(=O)[C@H](Cc2ccc(O)cc2)NC(=O)[C@H]([C@@H](C)O)NC1=O` has an MIC of 5 to 10 µM (Pseudomonas fluorescens; broth dilution; CGMCC strain; 24 h).
`Cc1cc(C(=O)Nc2nc3cccc(C)c3n2[C@H]2CCCCN(C(=O)/C=C/CN(C)C)C2)ccn1` has a survival of 107% and 104% and 103% and 106% and 102% and 101% (Trypanosoma brucei brucei; 2T1 CLK1 C215S overexpressing; 0.00343 µM, 72 h).
For `CC(C)[C@H]1NC(=O)C[C@H]2/C=C/CCSSC[C@@H](NC1=O)C(=O)N[C@H](Cc1cccc3ccccc13)C(=O)NCC(=O)O2`, the inhibition was -6% (AKT3 (Homo sapiens, UniProt Q9Y243); enzyme activity, inhibitor; 10 µM).
For `O=C(c1ccccc1O)c1[nH]c(Cl)c(Cl)c1-n1c(C(=O)c2ccccc2O)cc(Cl)c1Cl`, the MIC was > 64 µM (Shigella sonnei; microbial growth; ATCC25931).
The herbicidal inhibition of `CC(O)CN.O=C(O)C(Cl)Cl` is reported as 0% (Eleusine indica; 15 mg/mL, 21 days, pre-emergence, greenhouse).
`CC1(C)C(NC(=O)C(=NOC2(C(=O)O)CC2)c2csc(N)n2)C(=O)N1OS(=O)(=O)O` (stereo not drawn) gave an MIC of 2 µg/mL (Klebsiella pneumoniae; agar dilution; 2146, NDM-1).
`CC(C)(C)C(=O)OCOP(=O)(OCOC(=O)C(C)(C)C)C1CCCN(O)C1=O` (stereo not drawn) gave a log TGI of -4.29 log M (HOP-92).
`O=[N+]([O-])c1ccc(C2=[N+]([O-])c3ccccc3N3CCCN=C23)cc1` has an MIC of 0.06 to 0.125 µg/mL (Prevotella spp.).
The MIC of `O=c1n(CCNCCOS(=O)(=O)c2ccccc2)c(=O)n(S(=O)(=O)c2ccccc2)c(=O)n1S(=O)(=O)c1ccccc1` is reported as 2 µg/mL (Bacillus cereus; microbial growth, broth dilution).
The MIC of `c1ccc(CCNC2CCCc3c2[nH]c2ccc(C4CCCCC4)cc32)cc1` (stereo not drawn) is reported as 4 µg/mL (Staphylococcus aureus; broth microdilution; SA113).
`C[N+]1=C2C(c3ccccc3)=[N+]([O-])c3ccccc3N2CCC1` gave an MIC of 1 to 8 µg/mL (Prevotella spp.).
The MIC of `CC[C@H](C)[C@H](NC(=O)[C@H](C)NC(=O)CNC(=O)[C@H](C)NC(=O)[C@H](CCCCN)NC(=O)[C@H](CO)NC(=O)[C@H](C)NC(=O)[C@H](CCSC)NC(=O)CN)C(=O)N[C@@H](C)C(=O)NCC(=O)N[C@@H](CCCCN)C(=O)N[C@H](C(=O)N[C@@H](C)C(=O)N[C@@H](CCCCN)C(=O)N[C@H](C(=O)N[C@@H](C)C(=O)N[C@@H](CC(C)C)C(=O)N[C@@H](CCCCN)C(=O)N[C@@H](C)C(=O)N[C@@H](CC(C)C)C(N)=O)C(C)C)[C@@H](C)CC` is reported as 2.5 µg/mL (Escherichia coli; 0370, ampicillin-resistant, minimal salts medium; 18 h, 37 °C).
With `CC(C)Oc1ccc(B(O)O)c(F)n1` the MIC was 1020 µg/mL (Enterobacter cloacae; bacterial growth; AmpC overproducer clinical isolate; without cefotaxime).
The inhibition of `CN(C)[C@H]1C[C@@]23CC[C@@]4(O2)C(=CC[C@]2(C)[C@@H](c5ccc6ccncc6c5)CC[C@H]24)C=C3[C@@H](O)[C@@H]1O` is reported as -2.1% (SRPK1 (Homo sapiens, UniProt Q96SB4); ATP probe labelling, inhibitor, KiNativ profiling; 0.1 µM).
`O[C@]12C=C(c3nccc4c3[nH]c3ccccc34)[C@@H]3CCN(CCCC/C=C\CC1)C[C@@]31C[C@@H]3/C=C\CCCCN3[C@H]12` has an MIC of 0.63 µg/mL (Mycobacterium intracellulare; Alamar Blue; ATCC 23068).
With `CC[C@H](C)[C@H](NC(=O)[C@H](CCCNC(=N)N)NC(=O)[C@H](CO)NC(=O)[C@H](Cc1ccc(O)cc1)NC(=O)[C@@H](NC(=O)[C@@H](NC(=O)[C@H](C)NC(=O)CNC(=O)[C@H](CCCCN)NC(=O)[C@H](CCCCN)NC(=O)CCNC(=O)CCCCCNC(=O)[C@H](CCCNC(=N)N)NC(=O)CCCCCNC(=O)[C@H](CCCNC(=N)N)NC(=O)[C@H](CCCNC(=N)N)NC(=O)CCCCCNC(=O)[C@H](CCCNC(=N)N)NC(=O)[C@H](CCCNC(=N)N)NC(=O)CCCCCNC(=O)[C@H](CCCNC(=N)N)NC(=O)[C@H](CCCNC(=N)N)NC(=O)CCCCCNC(=O)[C@@H](N)CCCNC(=N)N)C(C)C)[C@@H](C)O)C(=O)N[C@@H](CO)C(=O)NCC(=O)N[C@@H](CCC(N)=O)C(=O)N[C@@H](Cc1ccc(O)cc1)C(=O)N[C@@H](CCCCN)C(=O)O` the MIC was 6 µM (Escherichia coli; ATCC 25922).
`CC[C@H](C)[C@@H]1NC(=O)[C@@H]([C@@H](C)O)NC(=O)CNC(=O)[C@H](CC(=O)O)NC(=O)CNC(=O)[C@H](CC(=O)O)NC(=O)CNC(=O)[C@H]2CCCCN2C(=O)[C@@H](NC(=O)[C@H](CC(=O)O)NC(=O)/C=C/CCCCCCCCCC(C)C)CNC(=O)[C@@H]2CCCN2C1=O` gave an MIC of 32 µg/mL (Enterococcus faecium; broth microdilution; daptomycin-resistant isolate, Mueller-Hinton broth, Mg2+ 10 mg/L; 16 h, together with: Ca2+ 1.0 mM).
For `COc1ccccc1-c1n[nH]c2nc(NC3CCN(C(=O)Cc4ccc(F)cc4F)CC3)ncc12`, the relative abundance was 0.96 (bead binding, competition bead pull-down, measured: LMJF.07.0340; Leishmania donovani extract; 10 µM; relative to: vehicle).
For `CC(C)C[C@H](NC(=O)[C@H](Cc1ccccc1)NC(=O)[C@H](CCC(N)=O)NC(=O)[C@H](Cc1ccc(O)cc1)NC(=O)[C@H](CCCCN)NC(=O)[C@@H]1CCCN1C(=O)[C@H](CCCNC(=N)N)NC(=O)[C@H](CCC(N)=O)NC(=O)[C@H](Cc1c[nH]c2ccccc12)NC(=O)[C@H](CS)NC(=O)[C@H](Cc1c[nH]c2ccccc12)NC(=O)[C@H](Cc1ccccc1)NC(=O)[C@H](CCCNC(=N)N)NC(=O)[C@H](CCCCN)NC(=O)[C@H](CCCCN)NC(=O)[C@H](CCCCN)NC(=O)[C@@H](NC(=O)[C@@H](NC(=O)[C@H](CC(C)C)NC(=O)[C@@H](N)CO)C(C)C)[C@@H](C)O)C(=O)O`, the MIC was 12.5 µg/mL (Staphylococcus haemolyticus).
For `CC(C)CCCCCCCCC/C=C/C(=O)N[C@@H](CC(=O)O)C(=O)N[C@H]1CNC(=O)[C@@H]2CCCN2C(=O)[C@H](C(C)C)NC(=O)[C@@H](CN)NC(=O)CNC(=O)[C@H](CC(=O)O)NC(=O)CNC(=O)[C@H](CC(=O)O)NC(=O)[C@H](CC(=O)O)NC(=O)[C@H]2CCCCN2C1=O`, the MIC was 8 to 16 µg/mL (Staphylococcus aureus; broth microdilution; VISA LIM strain 2, Mueller-Hinton broth, Mg2+ 10 mg/L; 16 h, together with: Ca2+ 1.0 mM).
The MIC of `[O-][N+]1=C(c2ccc(Cl)cc2)C2=NCCCN2c2ccccc21` is reported as 0.06 to 1 µg/mL (Prevotella spp.).
For `COc1ccccc1-c1n[nH]c2nc(N[C@H]3CC[C@H](NS(=O)(=O)CC(C)C)CC3)ncc12`, the relative abundance was 0.94 (bead binding, competition bead pull-down, measured: LINJ.23.0220; Leishmania donovani extract; 10 µM; relative to: vehicle).
`CCCCCCCCCCCCCC(=O)N[C@H]1C(=O)N[C@@H](CN)C(=O)N[C@@H](CO)C(=O)N[C@@H](Cc2ccc(O)cc2)C(=O)O[C@H]1C` has an MIC of 2 µg/mL (Staphylococcus aureus; SH1000; together with: phosphatidylcholine, molar ratio 0.5).
With `O=C1NC2(CC2)COc2ncc(F)cc2[C@H]2COCCN2c2ccn3ncc1c3n2` the serum triglycerides was 0.4 ± 0.1 mmol/L (Sprague-Dawley rat, female, serum; oral, 20 mg/kg/day, end of recovery, 4-week subacute toxicity).

For quick reference, copied from above:
`CC(=O)N[C@@H](CC(C)C)C(=O)N[C@H]1CSSC[C@@H](C(=O)N2CCC[C@H]2C(N)=O)NC(=O)[C@H]([C@@H](C)O)NC(=O)[C@H](C(C)C)NC(=O)[C@H]([C@@H](C)O)NC(=O)[C@H](CCCCN)NC(=O)[C@H](CC(C)C)NC(=O)[C@H](Cc2ccccc2)NC(=O)[C@H](Cc2ccc(O)cc2)NC(=O)[C@H](CC(C)C)NC(=O)[C@H](CCCCN)NC(=O)[C@H](Cc2ccccc2)NC(=O)[C@H](CCCNC(=N)N)NC(=O)[C@H](CCC(N)=O)NC(=O)[C@H](CC(C)C)NC(=O)[C@H](CCCCN)NC(=O)[C@@H]2CCCN2C(=O)[C@H](CCCCN)NC(=O)[C@H](C(C)C)NC(=O)[C@H](CC(N)=O)NC(=O)[C@H](Cc2ccc(O)cc2)NC(=O)[C@H]([C@@H](C)O)NC1=O` has an MIC of 5 to 10 µM (Pseudomonas fluorescens; broth dilution; CGMCC strain; 24 h).
`Cc1cc(C(=O)Nc2nc3cccc(C)c3n2[C@H]2CCCCN(C(=O)/C=C/CN(C)C)C2)ccn1` has a survival of 107% and 104% and 103% and 106% and 102% and 101% (Trypanosoma brucei brucei; 2T1 CLK1 C215S overexpressing; 0.00343 µM, 72 h).
For `CC(C)[C@H]1NC(=O)C[C@H]2/C=C/CCSSC[C@@H](NC1=O)C(=O)N[C@H](Cc1cccc3ccccc13)C(=O)NCC(=O)O2`, the inhibition was -6% (AKT3 (Homo sapiens, UniProt Q9Y243); enzyme activity, inhibitor; 10 µM).
